Measurements gathered from unrelated publications.
Lines come from different studies, so protocols differ. Numbers after ± are the reported error.

Structure (SMILES) | tested on | assay | system | conditions | how to read | quantity | result
[123I]c1ccc2nc(-c3ccc(-n4ccnn4)nc3)cn2c1 |  |  | Wistar rat, bone | intravenous, 14 h |  | tissue uptake | not detected
CCCC[C@H](NC(=O)CCCCCCCNC(=O)CN1CCN(CC(=O)O)CCN(CC(=O)O)CC1)C(=O)N[C@H]1CC(=O)NCCCC[C@@H](C(N)=O)NC(=O)[C@H](Cc2c[nH]c3ccccc23)NC(=O)[C@H](CCCNC(=N)N)NC(=O)[C@@H](Cc2ccccc2)NC(=O)[C@H](Cc2c[nH]cn2)NC1=O [fluorine-18 labelled] |  |  | C57 mice B16-F10 melanoma, stomach | intravenous, 0.37 MBq, 0.5 h |  | tissue uptake | 1.52 ± 0.32 %ID/g
COc1cccc(OC)c1-c1cc(C(=O)NC2(C(=O)O)C3CC4CC(C3)CC2C4)nn1-c1ccc(C(=O)N(C)CCOCCN(C)C(=O)[C@H](CCCCNC(=O)[C@H](CC(C)C)NC(=O)C2OC2C(=O)O)NC(=O)CN2CCN(CC(=O)[O-])CCN(CC(=O)[O-])CCN(CC(=O)[O-])CC2)cc1C(C)C.[177Lu+3] (mixture of isomers) |  |  | mouse, HT-29 xenograft, muscle | 4 h post injection |  | tissue uptake | 0.31 %ID/g
COC1CN([C@H]2CC[C@H]([C@@]3(C)Oc4c(Cl)cc(C(=O)NCc5c(SC)cc(C)[nH]c5=O)c(C)c4O3)CC2)C1 |  | RNA-seq, refers to: CCM2L | human, whole blood | dose not given, 24 h | relative to: pretreatment baseline | log2 fold change | 4.14
Cc1ncsc1-c1ccc(C(C)NC(=O)C2CC(O)CN2C(=O)C(NC(=O)CCCCCCCCCCN2CCCC(Nc3ncc(Cl)c(Nc4ccccc4S(=O)(=O)C(C)C)n3)C2)C(C)(C)C)cc1 (stereo not drawn) | 22Rv1 | RNA-seq, refers to: ZSCAN12 mRNA |  | concentration not given | relative to: DMSO | log2 fold change | -2.37
CC(C)Cc1ccc(C(C)C(=O)N[C@@H](CCCCNC(=O)CCOCCOCCOCCOCCOCCOCCNC(=O)CN2CCN(CC(=O)[O-])CCN(CC(=O)[O-])CCN(CC(=O)[O-])CC2)C(=O)Nc2cccc3c(C(=O)NCC(=O)N4CC(F)(F)C[C@H]4C#N)ccnc23)cc1.[177Lu+3] (stereo partly drawn) |  |  | mouse, U-87 MG tumour xenograft, kidneys | 1 h |  | tissue uptake | 4.73 ± 0.92 %ID/g
COc1cccc(OC)c1-c1cc(C(=O)NC2(C(=O)O)C3CC4CC(C3)CC2C4)nn1-c1ccc(C(=O)N(C)CCOCCOCCN(C)C(=O)[C@H](CCCCNC(=O)[C@H](CC(C)C)NC(=O)C2OC2C(=O)O)NC(=O)CN2CCN(CC(=O)[O-])CCN(CC(=O)[O-])CCN(CC(=O)[O-])CC2)cc1C(C)C.[177Lu+3] (mixture of isomers) |  |  | mouse, HT-29 xenograft, brain | 72 h post injection |  | tissue uptake | 0.013 %ID/g
[11CH3]N1CCC(NC(=O)c2cc(-c3c(O)cc(O)cc3Oc3ccc([N+](=O)[O-])cc3)on2)CC1 |  |  | Wistar rat, female, healthy, spleen | intravenous, 10 min |  | tissue uptake | 0.4 %ID
Cc1cc(C)n(CCN(CCN)CCCCCCNC(=O)[C@@H](N)Cc2c[nH]cn2)n1.[99Tc+].[C-]#[O+].[C-]#[O+].[C-]#[O+] |  |  | BALB/c nude mice, MCF7 xenograft, tumor | intravenous, 15 min |  | tissue uptake | 0.35 ± 0.02 %IA/g
COc1cccc(OC)c1-c1cc(C(=O)NC2(C(=O)O)C3CC4CC(C3)CC2C4)nn1-c1ccc(C(=O)NCCNC(=O)[C@H](CCCCNC(=O)[C@H](CC(C)C)NC(=O)C2OC2C(=O)O)NC(=O)CN2CCN(CC(=O)[O-])CCN(CC(=O)[O-])CCN(CC(=O)[O-])CC2)cc1C(C)C.[177Lu+3] (mixture of isomers) |  |  | mouse HT-29 xenograft, large intestine | 4 h post injection, biodistribution |  | tissue uptake | 1.21 %ID/g
O=C(O)CCCOc1ccc([18F])cc1-c1cc(-c2ccccc2C(F)(F)F)n(-c2ccccc2)n1 |  |  | mouse, bone | intravenous, dose not given, 60 min |  | tissue uptake | 1.46 ± 0.38 %ID/g
O=C(NCC1OC2CCC=CCCC2O1)c1ccc([18F])nc1 (stereo not drawn) |  |  | healthy female BALB/c nude mice, brain | intravenous, 7.4 MBq per mouse, 5 min |  | tissue uptake | 2.7 ± 1.3 %ID/g

Repeated from above:
Structure (SMILES) | tested on | assay | system | conditions | how to read | quantity | result
CC(C)Cc1ccc(C(C)C(=O)N[C@@H](CCCCNC(=O)CCOCCOCCOCCOCCOCCOCCNC(=O)CN2CCN(CC(=O)[O-])CCN(CC(=O)[O-])CCN(CC(=O)[O-])CC2)C(=O)Nc2cccc3c(C(=O)NCC(=O)N4CC(F)(F)C[C@H]4C#N)ccnc23)cc1.[177Lu+3] (stereo partly drawn) |  |  | mouse, U-87 MG tumour xenograft, kidneys | 1 h |  | tissue uptake | 4.73 ± 0.92 %ID/g
